Experimental data gathered from unrelated publications.
A part holds a random share of what one study measured. Positions count from the first letter of the parent shown.

Sample 1 — technique: protein binding microarray; form: double-stranded DNA, one strand shown; medium: in vitro; concentration: not given; reference: not given; reading: higher = stronger binding; endpoint: E-score
Target: Histone acetyltransferase KAT6A, winged helix 1, GST fusion (KAT6A, Homo sapiens, UniProt Q92794, residues 1-85)
Setting: 8-mer, flanks averaged, mean of 2 arrays, mostly near background
Residues (chain): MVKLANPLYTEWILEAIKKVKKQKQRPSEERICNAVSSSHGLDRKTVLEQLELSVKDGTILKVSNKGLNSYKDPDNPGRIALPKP
TAGTTACA: -0.0536
AATACCCA: -0.314
TACACATA: -0.0444
ACACACCT: -0.0718
AATGGCGA: -0.069
AGCATCCG: 0.0182
CCGTAACC: 0.38
ATACTACC: 0.0638

Sample 2 — target: CCND3, cyclin fold, Cln2 fusion (human); technique: yeast growth competition, sequencing; medium: yeast; setting: weak parent motif; reference: not given; reading: higher = stronger binding; endpoint: normalised enrichment score
Starting sequence: viral docking peptide; KGVKRKLFAEDSS; partner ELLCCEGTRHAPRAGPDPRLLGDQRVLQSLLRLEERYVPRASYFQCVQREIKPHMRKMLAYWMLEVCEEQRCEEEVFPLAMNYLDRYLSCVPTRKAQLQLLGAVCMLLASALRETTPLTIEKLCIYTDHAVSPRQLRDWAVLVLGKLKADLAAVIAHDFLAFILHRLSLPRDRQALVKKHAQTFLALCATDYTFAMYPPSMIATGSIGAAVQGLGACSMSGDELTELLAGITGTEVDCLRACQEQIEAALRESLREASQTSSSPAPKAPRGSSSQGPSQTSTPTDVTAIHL
KGVKRKLNAEDSS [F8N]: -0.0522
KGVKRKLFWEDSS [A9W]: -0.0465
KGVKRKLFAEDLS [S12L]: 0.238
KGVKRKLFSEDSS [A9S]: 0.155
KGVKRVLFAEDSS [K6V]: 0.104

Sample 3 — effect on: peptide-MHC binding; form: peptide; concentration: concentration not given; endpoint: binding
Target: HLA class I histocompatibility antigen, A alpha chain, allele A*25:01 (Homo sapiens, UniProt P04439)
ETIGLVRAL: active
YKSRCYVGL: inactive
NHDGIQAGV: inactive

Sample 4 — technique: universal PBM; form: double-stranded DNA, one strand shown; medium: in vitro; concentration: 600 nM; reading: higher = stronger binding; endpoint: E-score
Target: Sal-like protein 4, full length isoform A (SALL4, Homo sapiens, UniProt Q9UJQ4, residues 1-1053)
Chain of UniProt Q9UJQ4 (whole entry, looked up): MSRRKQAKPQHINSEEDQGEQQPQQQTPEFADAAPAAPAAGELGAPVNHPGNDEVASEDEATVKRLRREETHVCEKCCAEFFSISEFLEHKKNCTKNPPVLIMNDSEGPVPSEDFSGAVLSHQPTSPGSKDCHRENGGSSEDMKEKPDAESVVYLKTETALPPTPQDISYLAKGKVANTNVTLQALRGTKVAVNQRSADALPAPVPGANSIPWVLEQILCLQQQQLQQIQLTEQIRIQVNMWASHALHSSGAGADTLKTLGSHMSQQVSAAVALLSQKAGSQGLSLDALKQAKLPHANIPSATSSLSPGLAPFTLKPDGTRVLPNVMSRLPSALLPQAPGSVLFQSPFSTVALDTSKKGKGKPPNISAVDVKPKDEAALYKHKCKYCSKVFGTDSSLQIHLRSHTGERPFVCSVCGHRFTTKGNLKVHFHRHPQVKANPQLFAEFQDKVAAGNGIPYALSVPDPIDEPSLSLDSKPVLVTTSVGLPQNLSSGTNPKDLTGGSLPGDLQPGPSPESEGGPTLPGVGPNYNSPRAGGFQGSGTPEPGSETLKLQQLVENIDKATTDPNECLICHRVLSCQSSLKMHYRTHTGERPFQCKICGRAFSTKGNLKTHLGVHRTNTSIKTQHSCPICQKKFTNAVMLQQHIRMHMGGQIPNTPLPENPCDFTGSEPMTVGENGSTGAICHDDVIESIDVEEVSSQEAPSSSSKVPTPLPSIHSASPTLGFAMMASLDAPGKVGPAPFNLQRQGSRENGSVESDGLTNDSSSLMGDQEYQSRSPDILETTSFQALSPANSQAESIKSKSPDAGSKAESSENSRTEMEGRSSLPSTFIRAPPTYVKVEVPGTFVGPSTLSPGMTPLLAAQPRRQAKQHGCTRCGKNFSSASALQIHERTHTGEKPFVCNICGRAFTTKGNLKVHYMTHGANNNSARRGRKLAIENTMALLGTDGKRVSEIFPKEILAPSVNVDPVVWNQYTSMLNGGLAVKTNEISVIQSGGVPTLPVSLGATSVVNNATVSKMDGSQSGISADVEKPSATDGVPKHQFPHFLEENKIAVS
Setting: 8-mer, flanks averaged, mean of replicates
CCAAACCA: -0.0533
GCACTCAA: -0.211
CAGTAGGG: -0.221
ACTTGTGA: 0.16
ACTTTGTG: 0.0635
AATTGCGG: 0.158
TCTTGACA: 0.0841
TGGGAGAA: 0.0569
